Measurements of several laboratories.
Each numbered part is a random draw from the data of one study; scales do not carry over between parts.
Sequence of UniProt Q8IVW4 (whole entry, looked up): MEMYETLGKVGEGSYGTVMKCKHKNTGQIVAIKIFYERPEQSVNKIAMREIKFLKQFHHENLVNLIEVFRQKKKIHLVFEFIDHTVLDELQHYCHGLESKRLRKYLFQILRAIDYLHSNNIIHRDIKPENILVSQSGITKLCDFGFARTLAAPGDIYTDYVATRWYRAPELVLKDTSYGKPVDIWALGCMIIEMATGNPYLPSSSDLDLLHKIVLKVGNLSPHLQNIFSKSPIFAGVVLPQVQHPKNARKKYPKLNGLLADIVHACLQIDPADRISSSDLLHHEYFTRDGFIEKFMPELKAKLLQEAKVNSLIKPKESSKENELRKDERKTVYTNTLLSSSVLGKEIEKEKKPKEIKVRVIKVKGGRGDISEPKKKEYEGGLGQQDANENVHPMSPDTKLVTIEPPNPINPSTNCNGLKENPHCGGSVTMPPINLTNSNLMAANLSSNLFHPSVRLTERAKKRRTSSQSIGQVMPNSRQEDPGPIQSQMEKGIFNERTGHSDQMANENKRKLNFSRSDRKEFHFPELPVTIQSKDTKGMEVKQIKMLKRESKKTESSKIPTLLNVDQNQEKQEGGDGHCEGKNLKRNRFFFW
Sequence of UniProt Q86UX6 (whole entry, looked up): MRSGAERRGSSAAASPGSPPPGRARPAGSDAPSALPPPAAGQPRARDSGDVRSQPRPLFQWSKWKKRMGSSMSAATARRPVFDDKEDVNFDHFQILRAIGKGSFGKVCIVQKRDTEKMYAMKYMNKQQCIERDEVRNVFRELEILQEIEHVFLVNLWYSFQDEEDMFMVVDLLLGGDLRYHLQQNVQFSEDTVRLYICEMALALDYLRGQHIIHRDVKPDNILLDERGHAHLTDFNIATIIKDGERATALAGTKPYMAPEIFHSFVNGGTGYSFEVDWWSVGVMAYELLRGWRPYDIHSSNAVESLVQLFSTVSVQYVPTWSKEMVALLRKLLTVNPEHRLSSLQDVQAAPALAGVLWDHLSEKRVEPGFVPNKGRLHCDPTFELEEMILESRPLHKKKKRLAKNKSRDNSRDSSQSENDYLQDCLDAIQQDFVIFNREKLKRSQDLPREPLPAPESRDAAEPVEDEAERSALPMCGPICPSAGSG
Sequence of UniProt O14730 (whole entry, looked up): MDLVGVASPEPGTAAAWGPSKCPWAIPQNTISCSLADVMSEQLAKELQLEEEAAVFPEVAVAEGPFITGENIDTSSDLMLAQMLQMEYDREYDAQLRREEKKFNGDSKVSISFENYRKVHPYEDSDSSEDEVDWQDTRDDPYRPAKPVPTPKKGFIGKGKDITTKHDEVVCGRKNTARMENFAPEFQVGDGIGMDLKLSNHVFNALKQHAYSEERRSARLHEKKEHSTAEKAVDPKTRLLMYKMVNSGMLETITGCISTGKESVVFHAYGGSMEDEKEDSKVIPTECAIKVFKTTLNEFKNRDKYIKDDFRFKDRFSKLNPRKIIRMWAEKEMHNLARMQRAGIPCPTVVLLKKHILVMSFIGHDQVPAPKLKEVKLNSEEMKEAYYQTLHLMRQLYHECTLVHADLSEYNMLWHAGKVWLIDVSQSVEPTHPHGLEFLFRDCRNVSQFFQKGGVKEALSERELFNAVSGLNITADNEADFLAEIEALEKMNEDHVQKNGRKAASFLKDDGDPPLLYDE
Sequence of UniProt P07333 (whole entry, looked up): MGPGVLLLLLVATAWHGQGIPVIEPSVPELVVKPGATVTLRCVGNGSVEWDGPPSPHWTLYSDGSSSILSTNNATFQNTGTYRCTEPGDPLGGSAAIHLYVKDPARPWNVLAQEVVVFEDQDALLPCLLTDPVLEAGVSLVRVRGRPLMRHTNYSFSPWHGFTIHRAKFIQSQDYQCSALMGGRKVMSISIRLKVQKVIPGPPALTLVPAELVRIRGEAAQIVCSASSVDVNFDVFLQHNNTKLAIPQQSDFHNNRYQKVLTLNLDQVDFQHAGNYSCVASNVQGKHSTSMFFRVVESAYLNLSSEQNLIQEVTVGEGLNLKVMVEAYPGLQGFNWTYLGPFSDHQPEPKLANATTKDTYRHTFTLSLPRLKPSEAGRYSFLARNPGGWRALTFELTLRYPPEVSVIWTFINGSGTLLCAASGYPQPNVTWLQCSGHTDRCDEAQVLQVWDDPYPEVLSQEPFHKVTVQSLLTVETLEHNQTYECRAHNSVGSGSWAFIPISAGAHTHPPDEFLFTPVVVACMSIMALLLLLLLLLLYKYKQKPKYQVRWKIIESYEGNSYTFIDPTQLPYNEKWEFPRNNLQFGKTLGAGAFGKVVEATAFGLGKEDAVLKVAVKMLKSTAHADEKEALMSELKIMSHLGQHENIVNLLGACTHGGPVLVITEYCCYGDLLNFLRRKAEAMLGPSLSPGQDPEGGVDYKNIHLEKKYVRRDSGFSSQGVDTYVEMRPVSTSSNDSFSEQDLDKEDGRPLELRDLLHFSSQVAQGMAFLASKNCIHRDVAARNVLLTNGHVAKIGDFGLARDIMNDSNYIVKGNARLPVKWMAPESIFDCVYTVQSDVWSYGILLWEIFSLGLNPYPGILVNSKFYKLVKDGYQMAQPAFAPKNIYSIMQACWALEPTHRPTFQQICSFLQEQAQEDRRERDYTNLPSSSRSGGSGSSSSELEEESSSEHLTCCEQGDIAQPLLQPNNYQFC
Sequence of UniProt P11802 (whole entry, looked up): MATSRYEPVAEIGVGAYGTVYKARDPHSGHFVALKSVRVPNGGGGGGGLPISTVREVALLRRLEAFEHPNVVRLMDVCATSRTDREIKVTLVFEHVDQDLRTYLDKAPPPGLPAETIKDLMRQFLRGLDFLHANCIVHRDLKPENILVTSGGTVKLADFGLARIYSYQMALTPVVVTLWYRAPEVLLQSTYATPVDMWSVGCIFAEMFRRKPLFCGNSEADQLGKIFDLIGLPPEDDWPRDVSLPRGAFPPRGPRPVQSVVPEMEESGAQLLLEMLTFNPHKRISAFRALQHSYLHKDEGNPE
Sequence of UniProt P48729 (whole entry, looked up): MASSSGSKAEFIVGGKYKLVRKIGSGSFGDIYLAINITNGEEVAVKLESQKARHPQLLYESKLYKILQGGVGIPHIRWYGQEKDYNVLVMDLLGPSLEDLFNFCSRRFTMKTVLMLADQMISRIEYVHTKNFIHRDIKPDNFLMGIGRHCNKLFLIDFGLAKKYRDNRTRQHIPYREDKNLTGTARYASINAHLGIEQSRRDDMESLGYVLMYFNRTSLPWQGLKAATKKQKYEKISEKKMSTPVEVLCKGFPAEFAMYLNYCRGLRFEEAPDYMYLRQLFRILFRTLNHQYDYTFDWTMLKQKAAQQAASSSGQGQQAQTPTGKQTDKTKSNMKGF

Study 1
SMILES: C[C@H](c1ccnc(Nc2nc3ccc(-c4cc(N(C)C)ncn4)cc3[nH]2)c1)N1CCN(C(=O)CC(F)(F)F)CC1
Method: competition with immobilised ligand
Concentration: 0.1 µM
target | effect on | remaining binding
RIOK3 (Homo sapiens, UniProt O14730) | cell-free assay | 97%
CAMK1 (Homo sapiens, UniProt Q14012) | cell-free assay | 88%
Tyrosine-protein kinase ABL1, non-phosphorylated (ABL1, Homo sapiens, UniProt P00519, Q252H) | cell-free assay | 94%
MAPK9 (Homo sapiens, UniProt P45984) | cell-free assay | 89%
CDKL3 (Homo sapiens, UniProt Q8IVW4) | binding | 86%
CSF1R (Homo sapiens, UniProt P07333) | cell-free assay | 100%
STK11 (Homo sapiens, UniProt Q15831) | cell-free assay | 100%
NEK9 (Homo sapiens, UniProt Q8TD19) | cell-free assay | 100%
RIPK1 (Homo sapiens, UniProt Q13546) | cell-free assay | 95%
NEK10 (Homo sapiens, UniProt Q6ZWH5) | cell-free assay | 100%
PIK3CB (Homo sapiens, UniProt P42338) | cell-free assay | 100%
GRK4 (Homo sapiens, UniProt P32298) | cell-free assay | 100%
Cyclin-dependent kinase 4, with cyclin D3 (CDK4, Homo sapiens, UniProt P11802) | cell-free assay | 89%
RIOK2 (Homo sapiens, UniProt Q9BVS4) | cell-free assay | 100%
STK32C (Homo sapiens, UniProt Q86UX6) | cell-free assay | 100%
CSNK1A1 (Homo sapiens, UniProt P48729) | cell-free assay | 100%

Study 2
Target: CRBN/Zinc finger protein Helios (Homo sapiens, UniProt Q96SW2+Q9UKS7)
Sequence of UniProt Q96SW2 (whole entry, looked up): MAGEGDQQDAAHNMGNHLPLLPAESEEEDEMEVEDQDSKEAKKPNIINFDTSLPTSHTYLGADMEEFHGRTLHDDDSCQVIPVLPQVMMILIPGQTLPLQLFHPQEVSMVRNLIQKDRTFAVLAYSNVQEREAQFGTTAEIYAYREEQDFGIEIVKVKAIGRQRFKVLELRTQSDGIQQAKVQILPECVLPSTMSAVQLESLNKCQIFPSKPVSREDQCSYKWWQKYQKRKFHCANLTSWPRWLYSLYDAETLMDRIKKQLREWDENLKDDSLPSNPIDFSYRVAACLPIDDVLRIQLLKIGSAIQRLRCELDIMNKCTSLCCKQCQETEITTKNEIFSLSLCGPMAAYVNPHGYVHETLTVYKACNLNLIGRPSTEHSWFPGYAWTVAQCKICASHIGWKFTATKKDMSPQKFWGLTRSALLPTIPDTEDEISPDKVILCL
Sequence of UniProt Q9UKS7 (whole entry, looked up): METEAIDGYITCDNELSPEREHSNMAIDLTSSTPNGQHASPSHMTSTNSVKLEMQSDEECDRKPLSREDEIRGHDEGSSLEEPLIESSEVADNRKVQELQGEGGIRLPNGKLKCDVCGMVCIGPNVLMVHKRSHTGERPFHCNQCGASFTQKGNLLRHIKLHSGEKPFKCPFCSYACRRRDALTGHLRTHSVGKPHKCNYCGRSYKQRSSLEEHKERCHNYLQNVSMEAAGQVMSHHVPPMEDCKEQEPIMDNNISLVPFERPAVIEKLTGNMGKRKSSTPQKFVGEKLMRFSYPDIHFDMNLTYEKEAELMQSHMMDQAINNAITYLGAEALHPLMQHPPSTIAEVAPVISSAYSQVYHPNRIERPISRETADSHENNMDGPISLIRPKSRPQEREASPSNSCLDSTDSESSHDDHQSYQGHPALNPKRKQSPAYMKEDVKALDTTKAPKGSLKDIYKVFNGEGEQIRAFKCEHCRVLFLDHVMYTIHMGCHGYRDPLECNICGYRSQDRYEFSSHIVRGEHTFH
Mode: degrader
Method: HiBiT
Cells: HEK293
Concentration: 41.15 nM
Structure (SMILES) | protein remaining
O=C1CCC(N2Cc3c(ccc4c3OCC43CCC(Cc4ccccc4)CC3)C2=O)C(=O)N1 (centres unmarked) | 90%
O=C1CCC(N2Cc3c(ccc4c3OCCC43CCN(Cc4ccccc4)CC3)C2=O)C(=O)N1 (centres unmarked) | 71.2%
O=C1CCC(N2Cc3c(ccc4c3OCC43CCC(Oc4ccccc4)CC3)C2=O)C(=O)N1 (centres unmarked) | 89.7%

Study 3
Compound: CC(C)n1cnc(-c2ccc(F)cc2)c1-c1ncc(C(=O)Nc2ccc(N3CCN(C)CC3)cc2)[nH]1
method | refers to | species | route | dose | setting | patients with adverse event [%]
Phase 2a trial | blood fibrinogen increased | human, idiopathic pulmonary fibrosis | – | all compound arms total | grade 4 | 0
Phase 2a trial | blood creatinine increased | human, idiopathic pulmonary fibrosis | – | all compound arms total | grade 3 | 0
Phase 2a trial | blood creatine phosphokinase increased | human, idiopathic pulmonary fibrosis | – | all compound arms total | grade 3 | 0
– | prostatic calcification, maximum grade 2 | idiopathic pulmonary fibrosis patients | oral | 60 mg once daily | – | 0
Phase 2a trial | blood creatine phosphokinase increased | human, idiopathic pulmonary fibrosis | – | all compound arms total | grade 4 | 0
– | abnormal liver function test, grade 4 | idiopathic pulmonary fibrosis patients | oral | 30 mg once daily | – | 0
– | pulmonary embolism | patients with idiopathic pulmonary fibrosis | – | dose not given | trial, all compound arms | 0
Phase 2a trial | eosinophilia myalgia syndrome | human, idiopathic pulmonary fibrosis | – | all compound arms | grade 5 | 0
Phase 2a trial | hypocalcaemia | human, idiopathic pulmonary fibrosis | – | all compound arms total | grade 4 | 0
– | skin papilloma, maximum grade 5 | idiopathic pulmonary fibrosis patients | – | dose not given | all compound arms pooled | 0
Phase 2a trial | hepatic steatosis | human, idiopathic pulmonary fibrosis | – | all compound arms total | grade 3 | 0
Phase 2a trial | hyperlipidaemia | human, idiopathic pulmonary fibrosis | – | 30 mg once daily | grade 5 | 0
Phase 2a trial | hypoalbuminaemia | human, idiopathic pulmonary fibrosis | – | 30 mg once daily | grade 5 | 0
Phase 2a trial | blood glucose increased | human, idiopathic pulmonary fibrosis | – | all compound arms total | grade 5 | 0
Phase 2a trial | blood lactate dehydrogenase increased | human, idiopathic pulmonary fibrosis | – | 60 mg once daily | grade 3 | 0
Phase 2a trial | blood lactate dehydrogenase increased | human, idiopathic pulmonary fibrosis | – | 30 mg once daily | grade 4 | 0
Phase 2a trial | blood creatine phosphokinase increased | human, idiopathic pulmonary fibrosis | – | all compound arms total | grade 5 | 0
– | abnormal liver function test, grade 5 | idiopathic pulmonary fibrosis patients | oral | 30 mg once daily | – | 0

Study 4
Target: Mitogen-activated protein kinase kinase kinase kinase 5 (MAP4K5, Homo sapiens, UniProt Q9Y4K4)
Sequence of UniProt Q9Y4K4 (whole entry, looked up): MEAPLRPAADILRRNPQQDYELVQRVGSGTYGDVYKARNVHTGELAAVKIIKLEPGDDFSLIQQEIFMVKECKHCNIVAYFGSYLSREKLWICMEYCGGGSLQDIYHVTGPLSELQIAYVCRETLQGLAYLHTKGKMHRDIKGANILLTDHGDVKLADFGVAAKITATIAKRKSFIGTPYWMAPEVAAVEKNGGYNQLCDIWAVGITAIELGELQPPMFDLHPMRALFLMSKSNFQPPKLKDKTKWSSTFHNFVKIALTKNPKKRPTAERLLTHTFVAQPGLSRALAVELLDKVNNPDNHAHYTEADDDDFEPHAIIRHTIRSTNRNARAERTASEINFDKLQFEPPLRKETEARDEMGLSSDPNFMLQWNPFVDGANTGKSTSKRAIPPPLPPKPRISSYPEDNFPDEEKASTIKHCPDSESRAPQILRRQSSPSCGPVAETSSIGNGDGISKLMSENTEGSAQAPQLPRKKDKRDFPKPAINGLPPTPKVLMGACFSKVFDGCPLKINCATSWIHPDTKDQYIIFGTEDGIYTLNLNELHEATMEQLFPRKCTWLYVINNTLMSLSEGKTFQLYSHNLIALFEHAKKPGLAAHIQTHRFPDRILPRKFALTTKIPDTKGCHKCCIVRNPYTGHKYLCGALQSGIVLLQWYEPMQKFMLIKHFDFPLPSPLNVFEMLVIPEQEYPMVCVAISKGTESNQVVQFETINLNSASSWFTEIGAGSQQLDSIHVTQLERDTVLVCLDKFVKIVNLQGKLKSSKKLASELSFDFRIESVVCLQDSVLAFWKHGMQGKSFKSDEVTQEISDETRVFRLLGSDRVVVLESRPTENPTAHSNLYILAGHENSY
Effect on: enzyme activity
Mode: inhibitor
Concentration: 0.5 µM
Relative to: control
Structure (SMILES) | remaining activity [%]
Cc1cc(Nc2cc(N3CCN(C)CC3)nc(Sc3ccc(NC(=O)C4CC4)cc3)n2)[nH]n1 | 18.3
O=Nc1c(-c2c(O)[nH]c3cc(Br)ccc23)[nH]c2ccccc12 | 36.5
CN1CCN(c2ccc3nc(-c4c(N)c5c(F)cccc5[nH]c4=O)[nH]c3c2)CC1 | 3.26
c1ccc(-c2n[nH]c3c2oc2ccccc23)cc1 | 36.6
CCCCc1c(-c2ccc(OC)cc2)[nH]c2nccnc12 | 63.8
COc1ccc2c(c1)c(C1=C(c3c[nH]c4ccccc34)C(=O)NC1=O)cn2CCCN(C)C | 27.7
O=c1cc(N2CCOCC2)oc2c(-c3ccccc3)cccc12 | 92.2
N#Cc1cnc2cnc(NCc3cccnc3)cc2c1Nc1ccc(F)c(Cl)c1 | 61.7
O=C1Nc2ccc(Br)cc2/C1=C/c1cc2c([nH]1)CCCC2 | 17.7
O=C1Cc2c([nH]c3ccc(Br)cc23)-c2ccccc2N1 | 30.1
CCCNC(=O)Nc1ccc(Oc2ncnc3cc(OC)c(OC)cc23)cc1Cl | 54.6
COc1cccc(-c2cc(=O)c3ccccc3o2)c1N | 91.1
CN(C)S(=O)(=O)c1ccc2c(c1)/C(=C/c1cc3c([nH]1)CCCC3)C(=O)N2 | 3.08
O=C1Nc2ccccc2/C1=C\c1c(Cl)[nH]c2ccccc12 | 95
O=C(c1cc2cc(O)ccc2[nH]1)c1cc2cc(O)ccc2[nH]1 | 28.7
Oc1cccc(-c2nc(N3CCOCC3)c3oc4ncccc4c3n2)c1 | 82.4
Cc1ccc(S(=O)(=O)/C=C/C#N)cc1 | 97.8
c1ccc2c(-c3ccncc3)c[nH]c2c1 | 106
O=C1NC(=O)c2c1c1c3ccccc3[nH]c1n1cncc21 | 13.5

For quick reference, copied from above (study 3):
method | refers to | species | route | dose | setting | patients with adverse event [%]
– | pulmonary embolism | patients with idiopathic pulmonary fibrosis | – | dose not given | trial, all compound arms | 0
Phase 2a trial | blood lactate dehydrogenase increased | human, idiopathic pulmonary fibrosis | – | 60 mg once daily | grade 3 | 0
Phase 2a trial | blood lactate dehydrogenase increased | human, idiopathic pulmonary fibrosis | – | 30 mg once daily | grade 4 | 0
Phase 2a trial | blood creatinine increased | human, idiopathic pulmonary fibrosis | – | all compound arms total | grade 3 | 0
Phase 2a trial | hypoalbuminaemia | human, idiopathic pulmonary fibrosis | – | 30 mg once daily | grade 5 | 0
Phase 2a trial | blood fibrinogen increased | human, idiopathic pulmonary fibrosis | – | all compound arms total | grade 4 | 0
Phase 2a trial | hypocalcaemia | human, idiopathic pulmonary fibrosis | – | all compound arms total | grade 4 | 0
Phase 2a trial | hyperlipidaemia | human, idiopathic pulmonary fibrosis | – | 30 mg once daily | grade 5 | 0
